Assay results pooled from the literature.
Each numbered part is a random draw from the data of one study; scales do not carry over between parts. Substitutions count along the parent as printed.

Sample 1 — method: aptamer microarray, sandwich; molecule type: DNA with 2'F-ANA; matrix: in vitro; concentration: 200 nM; added: Cy3 exosite-II aptamer, 400 nM; reading: higher = stronger binding; quantity: mean fluorescence intensity; sequence: GGTTGGTGTGGTTGG
Target: Prothrombin, mature alpha-thrombin (F2, Homo sapiens, UniProt P00734)
Setting: whole 15-mer aptamer, many near background
2'F-ANA at 1 2 3 6: 217 a.u.
2'F-ANA at 3 4 8 9 10 13 14: 206 a.u.
2'F-ANA at 1 2 3 5 6 9 11 15: 55.4 a.u.
2'F-ANA at 1 7 8 11 13 15: 171 a.u.
2'F-ANA at 1 3 4 5 8 11 12: 105 a.u.
2'F-ANA at 3 4 5 6 9 10 12 14 15: 53.7 a.u.
2'F-ANA at 2 4 5 6 7 8 9 11 13: 58.6 a.u.
2'F-ANA at 1 2 3 5 6 9 10 15: 47.4 a.u.
2'F-ANA at 3 4 5 6 8 9 10 12 15: 59.7 a.u.
2'F-ANA at 1 4 5 6 7 8 9 10 11 12 13 14: 54 a.u.
2'F-ANA at 1 3 8 10 11 13 15: 73.3 a.u.
2'F-ANA at 1 2 4 8 12 13 14: 125 a.u.
2'F-ANA at 1 7 9 10 11 12 13 14: 49 a.u.
2'F-ANA at 1 4 5 9 10 12 14 15: 44.7 a.u.
2'F-ANA at 1 4 6 7 9 11 12 13 14 15: 52.8 a.u.
2'F-ANA at 1 2 6 8 11 13 14 15: 93.1 a.u.
2'F-ANA at 1 3 6 8 10 11 12 15: 93.4 a.u.
2'F-ANA at 1 2 5 6 9 11 13 14: 55.5 a.u.
2'F-ANA at 2 3 8 10 11 12 14: 314 a.u.
2'F-ANA at 1 3 5 9 10 11 12 14 15: 175 a.u.
2'F-ANA at 1 3 6 7 9 10 13 14 15: 64.5 a.u.
2'F-ANA at 1 2 3 5 7 8 10: 47.2 a.u.
2'F-ANA at 2 3 4 5 6 8 10 11 12 13 14: 49.9 a.u.
2'F-ANA at 2 4 5 7 8 9 11 12 13 14: 49.5 a.u.
2'F-ANA at 5 6 8 11 13: 58.7 a.u.

Sample 2 — method: universal PBM; molecule type: double-stranded DNA, one strand shown; matrix: in vitro; concentration: 600 nM; reading: higher = stronger binding; quantity: E-score
Target: Sal-like protein 4, full length isoform A (SALL4, Homo sapiens, UniProt Q9UJQ4, residues 1-1053)
Chain of UniProt Q9UJQ4 (whole entry, looked up): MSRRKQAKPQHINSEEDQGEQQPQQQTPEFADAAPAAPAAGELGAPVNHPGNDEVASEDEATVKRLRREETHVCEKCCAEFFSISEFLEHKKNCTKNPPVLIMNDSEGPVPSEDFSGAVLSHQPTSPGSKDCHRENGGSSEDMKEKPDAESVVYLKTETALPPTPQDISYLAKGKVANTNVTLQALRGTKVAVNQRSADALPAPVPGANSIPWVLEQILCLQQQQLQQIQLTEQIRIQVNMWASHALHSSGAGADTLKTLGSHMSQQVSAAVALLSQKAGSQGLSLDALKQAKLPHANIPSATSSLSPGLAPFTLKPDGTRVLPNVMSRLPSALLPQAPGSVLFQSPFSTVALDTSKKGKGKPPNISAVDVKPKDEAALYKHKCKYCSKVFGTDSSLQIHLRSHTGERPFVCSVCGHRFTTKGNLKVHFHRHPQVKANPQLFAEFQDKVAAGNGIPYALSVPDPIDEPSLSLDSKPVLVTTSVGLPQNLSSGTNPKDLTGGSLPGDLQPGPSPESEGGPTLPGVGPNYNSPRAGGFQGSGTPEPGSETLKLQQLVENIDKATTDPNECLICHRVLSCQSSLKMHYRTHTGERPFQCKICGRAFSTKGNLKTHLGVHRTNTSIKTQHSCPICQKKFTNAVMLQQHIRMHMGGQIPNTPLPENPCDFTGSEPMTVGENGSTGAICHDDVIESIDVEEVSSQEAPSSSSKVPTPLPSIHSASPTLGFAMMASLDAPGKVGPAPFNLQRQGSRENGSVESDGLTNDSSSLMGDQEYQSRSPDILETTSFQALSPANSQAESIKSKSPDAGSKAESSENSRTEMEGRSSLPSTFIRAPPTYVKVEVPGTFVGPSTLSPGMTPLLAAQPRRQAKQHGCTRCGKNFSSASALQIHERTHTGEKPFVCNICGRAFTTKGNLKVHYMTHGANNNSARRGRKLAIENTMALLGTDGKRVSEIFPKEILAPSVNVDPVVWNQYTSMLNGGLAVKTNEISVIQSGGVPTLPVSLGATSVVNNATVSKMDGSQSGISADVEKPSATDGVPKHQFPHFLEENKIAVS
Setting: 8-mer, flanks averaged, mean of replicates
TCGCAACA: 0.0259
TCTACACA: 0.0472
GCATGGCA: -0.00957
AGCAGGGG: -0.176
GTACGGGA: -0.0826
CTACAAAC: 0.00411
ACCCTAAA: -0.00954
ACGTGAAA: 0.255
CCCGTCCG: -0.424
AACCTCAA: 0.0895
CTCATGTA: 0.187
GAGCGATA: 0.0846
ATCCTAGG: -0.173
GCTGTGAA: -0.0131
ACTTTCTC: 0.0366
CTTAATCA: 0.216
ATTAGTGC: 0.0977
AGAGAAAC: -0.0421
GCGTTAAC: -0.0443
CTTTGTGA: 0.108
CCGAGATA: -0.00976
AACAGTGG: -0.252
CAACATAC: 0.211
TGAGTCCA: -0.0368
GCGAAGAC: -0.28

Sample 3 — method: RNA Bind-n-Seq; molecule type: RNA; matrix: in vitro; concentration: 365 nM; baseline: no-protein control; reading: higher = stronger binding; quantity: RBNS enrichment (R)
Target: RNA binding protein fox-1 homolog 2, RRM domain, GST-SBP tag (RBFOX2, Homo sapiens, UniProt O43251-10, residues 100-194)
Setting: natural RNA segment, single round, ends assumed
Shared flanks, not repeated: GGGAGUUCUACAGUCCGACGAUC … UGGAAUUCUCGGGUGCCAA
Target sequence (chain): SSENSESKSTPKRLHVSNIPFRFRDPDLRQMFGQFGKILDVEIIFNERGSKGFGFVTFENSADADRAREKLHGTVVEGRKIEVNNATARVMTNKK
UUCCAGGUGUACGUAAACUAACUGAAAGUAUUAAGGACAUGCCUGUCUAUACAUGGGUUUCAUUGAUGGUAUCUGUAUCAUCUUGACAAAUCGUGAACUGCUGCUGUAUG: 0.462
CACUUUAUUCUAUGGCUAGAAAGUCAGUGGAAAGUAAAUGUGCCAAACUCACUUGUCAGAACACACGAGCAGAUGGCAGAGUCCUCCUCCCCAGCAGGAACAAACGGCAU: 0.458
GCUUGCAGUGCUCCUCAACAGAGGGAGAGUCUCCCUAAGAUUUCCAUGUUCCUAGACAAAGUCCUAAGCUGUUUGGAAGUCUGUGAGCAUUUUCAGUAUAUGAGGAGCUG: 0.822
CCCCUUCCCCAGCCCUUAGCACAGAGAGGGACACAUGCCCCUCCCCCAGCUGCGUUUUUUUAUAGUAGAUUUUUAACAAAAAACGGGGAGAAAUAAUGCAUUUCUGUGGA: 0.701
GGUCUGAGGCUAUCCCUCAGCCAUGCAUAAAGUCCAAGAGAACCAACUGGCUCCUGGUCUCUAGCCUGUGACCGGCUUGCUUAAUGUCCUCAGAACCUGACAGGUAUGUU: 0.449
GAGUACCCCAGGCAGUUUCUCAGCCUCGUCCGUUGUGUGGAGGGAAUACUGAAUUCAGUUAUCUCACCUGACUGCUUUCCUGCCCUCAGACCUGGACACUGGGCCUCAGC: 0.265
UCUCUCCUUAGGGAGCUCGAGUCCUGGUGGGGAGAACAGGAGUAAACAAGGACUUGACAAAGCUGAAGAGUUAUCAGUCCUUUGACAAGGACAGGUGGGGCAGGGAGCAA: 0.555
CUCUUCCAUGUUUAUACUUGGCCUCUUCUGCAAGAGGAAUCUCUUGAAAACAGGGGCACACAGAAAUUUGAUUUGUGGCCAAAUUGGAUGAAAAAGAUGAGGCUCUAAGG: 0.345
AAAUAUUAUUAAAACAUUUCUGCCUAUGGUUAAAAAUCCAGAAAUCAAAGAAAUGAUCUUCAUGAUAAACUUCAAAGGAACAAACUUUAUGUUUUAGCUUCUAAAGACAA: 0.34
GAUCUGAGUGAGGCGUAGGAGGGAAGGCGCAUGGACUGGAACUUGCAAGUUGACUCUGGUUAUGCAAGAAUGUGUAACAGAUCAAGAGAUCCUCUCAAGUGUCUAUUAGA: 1.75
ACCGUUCAGGCCACGCAAUAUGAGAAUGCAGUUUUUGUAGGAUUACAAAAAAAAAAAAAAGCCAUUAAUCUGCCAGUCAAGACUACAGUUAAAAUCCCCUUCGCACUGCA: 2.76
AGUAAGUUGUUAACUGAGGGCUUUAAACCUGGAGGCUCUUCCUGAAAGUAUGUUCAUGAAUACCCCAAGCAUCAAGGUCUAAAUAAUUUUCAGAAGAUUAGAAUUGGGUA: 1.02

Sample 4 — method: DHFR PCA, deep sequencing; matrix: yeast; added: (+)-ABA 17 µM; baseline: wild-type fitted maximum; reading: higher = stronger binding; quantity: relative binding score
Target: ABI1, truncated, D143A, DHFR fusion (Arabidopsis thaliana)
Setting: methotrexate growth selection, single substitutions
Parent: PYL1, truncated, DHFR fusion (Arabidopsis thaliana); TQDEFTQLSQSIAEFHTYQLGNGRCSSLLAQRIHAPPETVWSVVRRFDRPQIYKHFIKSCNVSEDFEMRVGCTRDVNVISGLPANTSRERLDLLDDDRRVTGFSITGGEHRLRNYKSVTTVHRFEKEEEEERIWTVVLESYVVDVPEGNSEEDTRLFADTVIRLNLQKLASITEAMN
V142Q: 81.4%
V40K: -36.1%
Y115P: -6.99%
R132V: 90.9%
P146F: -12.6%
I52Y: 72%
G21A: 84.3%
D65V: 57.5%
V161K: 0.173%
T120A: 10.6%
V70M: 45.1%
L164E: 30.1%
L156W: 69.2%
R163Y: 7.93%
F103Q: -21.5%
S140W: -0.328%
Y141C: 6.98%
T120E: -6.93%
P37C: 58.3%

Sample 5 — target: CCNE2, cyclin fold, Cln2 fusion (human); method: yeast growth competition, sequencing; matrix: yeast; setting: strong parent motif; baseline: not given; reading: higher = stronger binding; quantity: normalised enrichment score
Parent: GMNC docking peptide (human); KNAKRNLSSEFAN
R5C: 0.153
S9T: 1.63
A12V: 1.15
E10N: 0.257
K4V: 2.26
S9P: 0.879
L7V: 0.516
N6T: 0.55
L7F: 0.559
K4P: 0.505
A3M: 0.195
F11E: 0.251
N6H: 0.567
S8V: 1.3
R5Y: 0.29
A3K: 0.522
L7W: 0.0218
F11V: 0.343
A12F: 1.08
N2L: 0.855
A12D: 1.22
K4C: 2.36
A12P: 0.457
F11N: -0.0927
S9Y: 1.95

Repeated from above (sample 2):
AACAGTGG: -0.252
ACTTTCTC: 0.0366
AGCAGGGG: -0.176
AACCTCAA: 0.0895
CCCGTCCG: -0.424
CTTTGTGA: 0.108
AGAGAAAC: -0.0421
TGAGTCCA: -0.0368
CTCATGTA: 0.187
